Experimental data gathered from unrelated publications.
Compare with care: the assays were run in different laboratories. Several values in a cell are separate wells, animals, samples, runs or records. ± marks the error that the study gave.

CCNc1cc2c(cc1C)C1(c3cc(C)c(NCC)cc3O2)c2ccccc2C(=O)N1N=Cc1c[c-]c(-c2ccccn2)cc1.Cc1c(C)c(-c2ccc(-c3ccccc3)cc2)[c-](C)c1C.[Cl-].[Ir+3] — late apoptotic cells (A549; annexin V/PI flow cytometry; 1.0×IC50, 24 h): 27.58 ± 0.21%
CC(C)c1ccc(N(C)c2ccc3c(c2)OCC[C@H]3CNc2cnccc2C(=O)O)cc1 — IC50 (NCI-H1435; cell growth or viability, ATP luminescence; 7 days): ≥ 10000 nM
COc1cc(N2CCN(C(=O)CCOCCNC(=O)[C@@H]3CCCN3)CC2)ccc1Nc1ncc(Cl)c(Nc2ccccc2P(C)(C)=O)n1 — G1 phase cells (H3122; flow cytometry; 500 nM, 24 h): 59.5% and 60.1% and 61.4%
CCN(C(=O)c1cc(F)ccc1Oc1nncnc1N1CCC2(C1)CN([C@H](CCCN(C)CCOC)C(C)C)C2)C(C)C — GI50 (MDA-MB-436; cell growth or viability; 7 days): > 10000 nM
C[C@@H]1Cc2c([nH]c3ccccc23)[C@@H](c2c(F)cc(/C=C/C(=O)O)cc2F)N1C12CC(C1)C2 — maximum inhibition (MCF7/luciferase, wild type; cell proliferation): 73.5%
Cc1ccc(-n2cc(CSc3nc4ccccc4n3Cc3cn(-c4ccc(C)cc4)nn3)nn2)cc1 — cytotoxicity (MDA-MB-231; MTT; 3.91 ppm): 39.9%
CN1CCCNC(=O)c2cccc(c2)C(=O)NCCCN(C)CCCNc2cccc3c2C(=O)c2cccc(c2C3=O)NCCC1 — log2 fold change (SAS; RNA-Seq, item: ANKRD52 mRNA; 1 µM, 6 h; relative to: untreated cells): -0.677
CNC(NN=Cc1ccc([N+](=O)[O-])o1)=[S+][Au-][Cl] — inhibition (CAKI-1; cell invasion, 3D Transwell invasion; IC20, 24 h; relative to: untreated): 58%
O=C(Nc1ccc(Sc2ccc3c(/C=C/c4ccccn4)n[nH]c3c2)cc1)Nc1ccc(F)c(F)c1 — GI50 (Ba/F3 TEL-VEGFR3; cell growth, CCK-8): 3190 nM
Cn1ncc2cc(-c3cncc(Cl)c3N3CCC4(CCNC4=O)CC3)ccc21 — fold change in expression (LS174T; microarray, item: MT1E; concentration not given, 24 h, gene set Metallothionein-1E; relative to: untreated cells): -3.39
CCOc1cncc(-c2ccc(NC(=O)C3(c4ccnc(NS(=O)(=O)C5CC5)n4)CCOCC3)nc2)n1 — IC50 (Detroit 562; cell growth, CellTiter-Glo; 72 h): 10000 nM
Fc1ccc(Nc2nc(NC3CCCCC3)c3cc(C(F)(F)F)ccc3n2)cc1F — pIC50 (transfected HEK293 cells; β-arrestin2 recruitment, negative allosteric modulator, BRET; 30 min pre-incubation, β1AR ECL1 chimera, together with: isoproterenol 1 µM): 6.8
COc1cccc(OC)c1-c1cc(C(=O)NC2(C(=O)O)C3CC4CC(C3)CC2C4)nn1-c1ccc(C(=O)N(C)CCCN(C)CCCN(C)C(=O)[C@H](CCCCNC(=O)[C@H](CC(C)C)NC(=O)C2OC2C(=O)O)NC(=O)CN2CCN(CC(=O)[O-])CCN(CC(=O)[O-])CCN(CC(=O)[O-])CC2)cc1C(C)C.[177Lu+3] (mixture of isomers) — internalized fraction (HT-29; 240 min, 4 h; relative to: added activity): 5.43 ± 0.57%
O=C(Nc1ccc(Sc2ccc3c(/C=C/c4ccccn4)n[nH]c3c2)cc1)c1ccco1 — GI50 (Ba/F3 TEL-VEGFR2; cell growth, CCK-8): 500 nM
C=CC(=O)N1[C@@H](c2ccc3c(c2)OCO3)c2[nH]c3ccccc3c2C[C@H]1C(=O)NC1CC1 — mean neuron degeneration (rat DRG neurons; 0.3704 µM, 48 h, together with: vincristine 40 nM): 78.4%
COCCCCCNc1nc(NCCCCCCN(C)C)c2cc(NC(=O)/C=C/CN(C)C)ccc2n1 — viability (MCF7; CellTiter-Glo; 25 µM, 48 h, unit not given; relative to: DMSO-treated cells): 0.983 and 1.02 and 0.971
CCCCCCCCN(CCC(=O)Nc1ccccc1)C(=O)c1ccc(C#N)cc1 — viability (progeroid mouse fibroblasts, Lmna G609G/G609G; MTT; 2 µM, 72 h; relative to: vehicle-treated wild type): 56 ± 4%
CCCCCCCCCCCC(=O)N[C@@H](CO)C[C@@H](O)c1cccc(CCCCCC)c1 — lactosylceramide level (HeLa; CERT activity, HPLC-MS/MS lipidomics, item: lactosylceramide 16; 1 µM, 24 h, not cell-number normalised): 21400 pmol/sample and 25800 pmol/sample and 29300 pmol/sample
CSC(=S)N/N=C(\C)c1ccc(Nc2nnc(-c3ccc(Cl)cc3)c3ccccc23)cc1 — cell death (MCF7; cell growth or viability, MTT; 1.25 µM): 90.2%
C=CC(=O)Nc1cccc(Cn2ncc3cnc(Nc4cnn(CCOC)c4)nc32)c1 — binding (human MET; KINOMEscan; 100 nM; relative to: control): 57%
O=C(CC(=O)Nc1ccc2[nH]nc(/C=C/c3ccccn3)c2c1)Nc1cccc(F)c1 — GI50 (Ba/F3 TEL-VEGFR2; cell growth, CCK-8): 330 nM
O=CCNCCOn1c(=O)n(OCCNCCO)c(=O)n(OCCNCCOn2c(=O)n(OCCNCCO)c(=O)n(OCCNCCO)c2=O)c1=O — viability (A549; cell growth or viability, MTT; 25 µg/mL, 48 h): 43.7%
COC(=O)c1cc(NC2=NC(=O)C(=Cc3ccc(N(C)C)cc3)S2)ccc1OC(C)=O — metabolite level (MCF7; GC-MS, item: Decanoic acid; 1 µM; relative to: DMSO): -1.07 fold change
O=C(Nc1nncs1)c1cccc([C@@H]2C[C@H]2NC2CCC2)c1 — relative growth (SET-2; cell growth, CellTiter-Glo; 0.1 µM, 7 d; relative to: vehicle): 71.6% and 70.3% and 78.5%
CCN(CC)CC(=O)Nc1cccc(-n2cc(-c3ccc4ccc(-c5cn(-c6cccc(NC(=O)CN(CC)CC)c6)nn5)cc4c3)nn2)c1 — fold regulation (RCC4; PCR angiogenesis array, item: VEGFB; 5 x IC50, 4 h, normoxia; relative to: untreated): 1.02 fold
COC1CN([C@H]2CC[C@H]([C@@]3(C)Oc4c(Cl)cc(C(=O)NCc5c(SC)cc(C)[nH]c5=O)c(C)c4O3)CC2)C1 — log2 fold change (RNA-seq, item: RANBP17; human, whole blood; dose not given, 24 h; relative to: pretreatment baseline): 2.62
Cc1ncsc1-c1ccc(C(C)NC(=O)C2CC(O)CN2C(=O)C(NC(=O)CCCCCCCCCCN2CCCC(Nc3ncc(Cl)c(Nc4ccccc4S(=O)(=O)C(C)C)n3)C2)C(C)(C)C)cc1 (stereo not drawn) — log2 fold change (22Rv1; RNA-seq, item: ZNF629 mRNA; concentration not given; relative to: DMSO): -1.25
COc1ccc(NC(=O)c2ccc3[nH]c(-c4ccc(N(C)C)cc4)nc3c2)cn1 — dead cell to confluence ratio (HCEC-hTERT; IncuCyte; concentration not given, 12 h): 3.54 and 81 and 5.36
CNS(=O)(=O)Nc1nccc(Cc2c(C)c3ccc(Oc4ncccc4F)cc3oc2=O)c1F — IC50 (ChaGo-K-1; cell viability; 7 days): 1.38 nM
CC1(C)C[C@@H](Nc2cccc(-c3sc(C(=O)O)c(OCC(=O)O)c3Cl)c2)CCN1S(=O)(=O)Cc1cccc(NC(=O)CN2CCC(c3ccc4c(c3)oc(=O)n4C3CCC(=O)NC3=O)CC2)c1 (stereo partly drawn) — fold change (B16-F10; HTRF, item: phospho-STAT1 Tyr701; 0.37 µM, together with: IFN-γ; relative to: DMSO): 4.19 and 4.09 and 4.56 and 4.5 and 4.36 and 4.42
C=CS(=O)(=O)Oc1ccc(OC)c(-c2c[nH]c3ncc(-c4cncc(C(=O)N(C)C)c4)cc23)c1 — cytotoxicity (non-BCR-ABL leukaemia cells; concentration not given): not toxic
COc1cc(N2CCN(C(=O)C3CCCN3)CC2)ccc1Nc1ncc(Cl)c(Nc2ccccc2P(C)(C)=O)n1 (stereo not drawn) — early apoptotic cells (NCI-H3122; annexin V/PI flow cytometry; 500 nM, 24 h): 14%
O=C(N1CCCC1)n1cc(-c2ccc(-c3ccccc3)cc2)nn1 — SILAC ratio (mouse T cells; N-terminal labelling proteomics, item: SERF2 N-terminal peptides; 0.001 µM, 6 h; relative to: DMSO): 1.08

Repeated from above:
CNC(NN=Cc1ccc([N+](=O)[O-])o1)=[S+][Au-][Cl] — inhibition (CAKI-1; cell invasion, 3D Transwell invasion; IC20, 24 h; relative to: untreated): 58%
CC1(C)C[C@@H](Nc2cccc(-c3sc(C(=O)O)c(OCC(=O)O)c3Cl)c2)CCN1S(=O)(=O)Cc1cccc(NC(=O)CN2CCC(c3ccc4c(c3)oc(=O)n4C3CCC(=O)NC3=O)CC2)c1 (stereo partly drawn) — fold change (B16-F10; HTRF, item: phospho-STAT1 Tyr701; 0.37 µM, together with: IFN-γ; relative to: DMSO): 4.19 and 4.09 and 4.56 and 4.5 and 4.36 and 4.42
CCN(C(=O)c1cc(F)ccc1Oc1nncnc1N1CCC2(C1)CN([C@H](CCCN(C)CCOC)C(C)C)C2)C(C)C — GI50 (MDA-MB-436; cell growth or viability; 7 days): > 10000 nM
CNS(=O)(=O)Nc1nccc(Cc2c(C)c3ccc(Oc4ncccc4F)cc3oc2=O)c1F — IC50 (ChaGo-K-1; cell viability; 7 days): 1.38 nM
